Assay results from different studies.
A part holds a random share of what one study measured.

Block 1
Target: Histone acetyltransferase KAT6A, winged helix 1, GST fusion (KAT6A, Homo sapiens, UniProt Q92794, residues 1-85)
Method: protein binding microarray
Molecule type: double-stranded DNA, one strand shown
Matrix: in vitro
Concentration: not given
Setting: 8-mer, flanks averaged, mean of 2 arrays, mostly near background
Reference: not given
Reading: higher = stronger binding
Target sequence (chain): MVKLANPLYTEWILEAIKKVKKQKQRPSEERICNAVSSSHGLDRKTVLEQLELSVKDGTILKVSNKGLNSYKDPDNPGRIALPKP
| Strand | E-score |
| --- | --- |
| AATTTGGG | -0.317 |
| CAGGGACG | 0.0552 |
| CTCTTGGC | -0.0635 |
| GTAAAACA | -0.0872 |
| ACCTCTCC | 0.109 |
| CCCTGAGC | 0.0302 |
| CACAATAG | -0.0595 |
| CTAATCTA | -0.0701 |
| CGCTACGA | 0.163 |
| CATTCATA | 0.0245 |
| AATTAAGC | 0.0533 |
| TAGAGCCA | -0.192 |
| ACTTGACA | -0.226 |
| AGTCCAGA | -0.32 |
| GTTTCACA | -0.0903 |
| ATGAGGCC | 0.0374 |
| CCCCCTCG | -0.0603 |
| ACTGCTCC | -0.0882 |
| ATCTAATG | -0.0884 |
| CAGACCTG | 0.0304 |
| ACCGCAAC | 0.111 |
| ACGTACGT | -0.112 |
| ACCCAGGC | -0.143 |
| GGAAAGTA | 0.0294 |
| CATCATCC | -0.0705 |

Block 2
Target: Prothrombin, mature alpha-thrombin (F2, Homo sapiens, UniProt P00734)
Method: aptamer microarray, sandwich
Molecule type: DNA with 2'F-ANA
Matrix: in vitro
Concentration: 200 nM
Setting: whole 15-mer aptamer, many near background
Together with: Cy3 exosite-II aptamer, 400 nM
Reading: higher = stronger binding
Strand: GGTTGGTGTGGTTGG
| Modification | mean fluorescence intensity [a.u.] |
| --- | --- |
| 2'F-ANA at 1 3 5 6 8 9 11 13 14 15 | 58.4 |
| 2'F-ANA at 1 6 7 8 9 15 | 199 |
| 2'F-ANA at 1 2 4 9 11 12 14 15 | 51.3 |
| 2'F-ANA at 2 4 5 8 9 10 11 14 15 | 50.6 |
| 2'F-ANA at 1 2 4 8 10 12 13 | 55.7 |
| 2'F-ANA at 2 3 5 6 8 9 13 | 75.3 |
| 2'F-ANA at 3 4 6 7 9 11 12 15 | 630 |
| 2'F-ANA at 2 3 4 7 9 10 11 15 | 255 |
| 2'F-ANA at 1 3 4 5 7 9 10 11 12 14 15 | 74 |
| 2'F-ANA at 2 5 10 11 14 15 | 56 |
| 2'F-ANA at 3 4 5 14 15 | 51.7 |
| 2'F-ANA at 3 4 7 8 13 15 | 559 |
| 2'F-ANA at 2 3 4 5 6 8 10 11 15 | 51.5 |
| 2'F-ANA at 2 4 6 9 12 14 15 | 95.1 |
| 2'F-ANA at 2 6 7 8 10 14 15 | 86.1 |
| 2'F-ANA at 1 2 5 6 8 10 11 12 13 | 49.6 |
| 2'F-ANA at 1 2 3 4 8 9 | 214 |
| 2'F-ANA at 2 4 5 8 11 12 15 | 104 |
| 2'F-ANA at 1 3 4 5 12 13 15 | 82.2 |
| 2'F-ANA at 4 6 8 11 12 | 466 |
| 2'F-ANA at 2 3 5 7 12 13 14 | 82.8 |
| 2'F-ANA at 1 2 3 4 6 7 8 10 13 14 15 | 52.4 |
| 2'F-ANA at 3 5 7 8 12 15 | 289 |
| 2'F-ANA at 3 8 9 10 11 12 13 15 | 435 |
| 2'F-ANA at 1 2 3 4 5 6 9 11 13 15 | 56.1 |

Block 3
Target: Ras GTPase-activating protein-binding protein 1, full length (G3BP1, Homo sapiens, UniProt Q13283)
UniProt Q13283, sequence (whole entry, looked up): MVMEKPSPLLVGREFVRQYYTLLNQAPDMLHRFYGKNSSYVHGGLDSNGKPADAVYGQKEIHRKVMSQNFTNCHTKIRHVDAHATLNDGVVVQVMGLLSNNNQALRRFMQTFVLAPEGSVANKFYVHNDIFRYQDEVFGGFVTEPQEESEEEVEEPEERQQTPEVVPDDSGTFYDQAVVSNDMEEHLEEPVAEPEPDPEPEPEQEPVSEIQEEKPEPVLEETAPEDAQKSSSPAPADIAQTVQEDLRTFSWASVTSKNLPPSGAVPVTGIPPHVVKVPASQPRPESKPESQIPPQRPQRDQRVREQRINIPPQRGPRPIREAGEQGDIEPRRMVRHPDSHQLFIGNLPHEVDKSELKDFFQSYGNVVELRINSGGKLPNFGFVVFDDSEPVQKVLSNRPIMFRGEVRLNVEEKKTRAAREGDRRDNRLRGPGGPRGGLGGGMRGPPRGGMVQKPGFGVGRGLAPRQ
Method: RNA Bind-n-Seq
Molecule type: RNA
Matrix: in vitro
Concentration: 200 nM
Setting: whole 134-nt RNA, ends assumed
Together with: 150 mM KCl
Reference: input library
Reading: higher = stronger binding
Shared flanks, not repeated: GGGAGUUCUACAGUCCGACGAUC … UGGAAUUCUCGGGUGUCAAGG
| Strand | log2 enrichment |
| --- | --- |
| UUCAACAACUAGUACUGCUUCAAAUUAUCCAGAUGUGUUAACAAGGCCUUCUCUUCAUCGGAGCCAUCUGAAUUUUUCCAUGUUGGAAUC | -0.0161 |
| UAGCAAGCCAAAUUACAGCAGCAGAUGGACCUGCAGAAAAAUCACAUUUUCCGUCUGACUCAAGGACUGCAAGAAGCUCUAGAUCGGGCU | -1.84 |
| UCAAGUCCUGUGCUACACAUCGUAUGUACCGAAUCGGUUUUUGGAGGAAAAAGGAAAGUAUUAUGUUACGCCGUUCGGAUCUGCACUUCC | -0.751 |
| AGUCCUGUGCUACACAUCGUAUGUACCGAAUCGGUUUUUGGGUUUUUGGUUUUUGGGAAAGUAUUAUGUUACGCCGUUCGGAUCUGCACU | -1.41 |
| UGGCCCUGGUGGCAUGCGGGGAGGAAGAGCUGGCCUCAUGGAUCGUGGUGGUCCCGGUGGAAUGUUCAGAGGUGGCCGUGGUGGAGACAG | 0.186 |
| ACCAUGCAGGUGGGCAUCUUUGGGAAGUGGGGCAAGGGGGGGAUAGGGAGGGGGGUAACACUUUGGGAACAGGUGGUCCCAAAACGUUUC | 0.879 |
| AAGUCGCGUGUCUAGGUGAGUCGCGGUGGGUCCUCGCUUGCAGUUCAGCGACCACGGUGGGUACCGUUUUUGCGAGGAUUGUUUGUCCCC | -1.56 |
| UGUGCUACACAUCGUAUGUACCGAAUCGGGGCCCCCCCGGGGCCCCCCCGGGGCCCCCCCGGAAAGUAUUAUGUUACGCCGUUCGGAUCU | -0.333 |
| CUCAAGUCCUGUGCUACACAUCGUAUGUACCGAAUCGGGGCCGGGCCGGGCCGGAAAGUAUUAUGUUACGCCGUUCGGAUCUGCACUUCC | -0.292 |
| UCAAGUCCUGUGCUACACAUCGUAUGUACCGAAUCGGGGCCGGCCGGGGCCGGGGAAAGUAUUAUGUUACGCCGUUCGGAUCUGCACUUC | -0.589 |
| AGUCCUGUGCUACACAUCGUAUGUACCGAAUCGGUUUUUUUGGAAAAAAAGGUUUGGAAAGUAUUAUGUUACGCCGUUCGGAUCUGCACU | -1.72 |
| CACAGACAACACGCACCCACACAGACACAGAGGGAAGGGGUUGGGAAAGGGACAGGGUGCACAGCAGGGCGGGGUAGGACCCCAGCCCCU | 1.59 |
| GCAGGAAGUAAAAACAAAUGGAAAUGCUUCGGAUAGUGGCAGGGGUGGGGGUUGCUAAGGAAAGGGUGGGAUGGGAAAAGGUAAAGAGUU | 0.779 |
| CUCAAGUCCUGUGCUACACAUCGUAUGUACCGAAUCGGAAAGGAGGUUUUUGGAAAGUAUUAUGUUACGCCGUUCGGAUCUGCACUUCCA | -0.484 |

Block 4
Target: RNA binding protein fox-1 homolog 2, RRM domain, GST-SBP tag (RBFOX2, Homo sapiens, UniProt O43251-10, residues 100-194)
Method: RNA Bind-n-Seq
Molecule type: RNA
Matrix: in vitro
Concentration: 365 nM
Setting: natural RNA segment, single round, ends assumed
Reference: no-protein control
Reading: higher = stronger binding
Shared flanks, not repeated: GGGAGUUCUACAGUCCGACGAUC … UGGAAUUCUCGGGUGCCAA
Target sequence (chain): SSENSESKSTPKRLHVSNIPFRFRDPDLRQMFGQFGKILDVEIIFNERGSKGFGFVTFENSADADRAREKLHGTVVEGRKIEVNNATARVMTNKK
| Strand | RBNS enrichment (R) |
| --- | --- |
| CAAGGCAUGAUGUGGCAGUAGCUGCUUCCCCUACCACUAGCUGCCCCCUCAUGGUCGUCUGGGGGACAGAGGUGGUCUGUGUUUACAAGGGCAGUCAAGUCCAGUCACCC | 8.25 |
| AGUAUUUCAUAUAUAUACAUAUAUAUGCACCUAUAUAAUGUGUAUAUAUAUAAAAAGGCAGCCAUUGCUAUUGCAAUUCAUUUAAUAAAGCUUUAGUUUAAACAAAAGUA | 0.56 |
| ACCUGAAGUUGCCUCUGGAGCCUCCACUGAGGAACACGUACAGCAGAGUCCUUCAUCCCAUCUCCAGGGUCUCUGACUUGUCACCCCUCAUCCUGGGAGCGCCAUAGUUC | 0.299 |
| GAAAGGCAGAAAGUUUACAAAUUAGACACUGGGUAUUUUUUAAGAACCUUCAGUGGAAGCAUGUCAUCAAUUCAUCACAGGCCUUUCCUGUCUUUGAAUUAGAAUCCAGA | 11.2 |
| GAGAACCGCCUUUCUCAUAUUUCCUGAAUGGGGUUUGACUCUAUUUGGGGAAAACAUUGCUUUUGGUCCCCCUCCCCAAUAUGCACACCUGCCUUUGCCACUACAUAGGC | 0.546 |
| UACAUUAAAAAACAAACCUCUCUCUAUAUAUAUUUAUAAAUGAGAACUGUUGGAUGACACCUUUGACAUAUCAGCCAAUAUCAAUCAAGCUGAAGACUCCAGACACUGUC | 0.588 |
| UCACUCUCCUCAAGCCAGGACUACCGACCAGCCGGCUAUGGGCACAUUACUCUGUGGCUGCUGGAUUCUUUUCCAGCAUGGCCUGUGGCCUGUGUGAGGCAGAACUGGGA | 0.282 |
| AGUCAAGAAGAAGCAGGAGCAGCCCUGCCCCCUGCCCCCAACUCCAUUAUUUAUUACGGAGCUGCCCCGCCUGGGUGGCCGGACCCCUGGGCCUUGGGGCUGUGGAUCCU | 0.293 |
| GUCAUGCUCCUGCAGGAAGAUGAGUCAUUUUUAGCACCACCUGAAGACUUUUAUUUAAAACAGCUUUCAUAUUAAACUGCUGCUGUAUUAAACAGACCUUAGUUUCCAUA | 0.468 |
| GCCACAGCAGUGAGGAGAUUUGUGUGCUGGGGCACUCAAAAGCCUCUACAAGAUCUUCGUUAAGAGUCAAGCUGCCGGUCAGGAGUCUGACAUUUGAAUCGUGUUGUGAU | 0.369 |
| AUCAGAGAAAGAUGCUGCAUUUUAUAAUCAAAGCCCAAACUCCUUUCUUAUCCUGACCUGACCAUACUAAUAAAUAUAAUUUAUAAGCAUUGCCAUUGGAGGCUCAAUUG | 0.598 |
| CUAAGGUGUCUGAGAGCAGGUACAGAAUAGGAACUUCAGAGGCUUUGUUUAAACGCAAAGCUUUGUAAAAGCCACAAGGUCUGAGCUGAACCCCUCCUUUUUGAACUUAC | 0.339 |

A few entries again (block 2):
| Modification | mean fluorescence intensity [a.u.] |
| --- | --- |
| 2'F-ANA at 1 3 4 5 12 13 15 | 82.2 |
| 2'F-ANA at 4 6 8 11 12 | 466 |
| 2'F-ANA at 2 3 4 5 6 8 10 11 15 | 51.5 |
| 2'F-ANA at 3 4 7 8 13 15 | 559 |
| 2'F-ANA at 1 2 5 6 8 10 11 12 13 | 49.6 |
| 2'F-ANA at 1 2 3 4 5 6 9 11 13 15 | 56.1 |
| 2'F-ANA at 2 4 5 8 11 12 15 | 104 |
